Measurements collected from several papers.
A part holds a random share of what one study measured. Changes are numbered by the printed parent chain.

Block 1
Target: Interferon regulatory factor 5, full length, phosphomimetic (IRF5, Homo sapiens, UniProt Q13568-2, residues 1-514, K96S/S451D/S453D/S456D/S462D)
Technique: protein-binding microarray
Molecule type: double-stranded DNA, one strand shown
Matrix: in vitro
Tested at: 250 nM
Setting: 60-bp whole probe
Together with: salmon DNA 0.4 mg/ml
Relative to: random background probes
Direction: higher = stronger binding
Constant ends, left off below: GCCTAGCAC … GTCTTGATTCGCTTGACGCTGCTG
| Strand | log fluorescence [z-score] |
| --- | --- |
| TTAGGCATCCTTATCCTTTAGTGCTAG | -0.422 |
| GACGGACTGGACACTGGGGTCGTGCTA | -0.584 |
| TTTGATATCGGGTTTCGATTAGTGCTA | 8.27 |
| GGCGATTTCAGTTTCGAGACGTGCTAG | 7.32 |
| TTAGATATCAGACTGGATTGGTGCTAG | 0.257 |

Block 2
Target: CCNF, cyclin fold, Cln2 fusion (human)
Technique: yeast growth competition, sequencing
Matrix: yeast
Setting: strong parent motif
Relative to: not given
Direction: higher = stronger binding
Starting sequence: INSM1 docking peptide (human); PKAIRKLHFEDEV
| Variant | normalised enrichment score |
| --- | --- |
| E12G | 7.73 |
| F9M | 5.11 |
| A3T | 7.57 |
| K2H | 7.29 |

Block 3
Target: Histone acetyltransferase KAT6A, winged helix 1, GST fusion (KAT6A, Homo sapiens, UniProt Q92794, residues 1-85)
Technique: protein binding microarray
Molecule type: double-stranded DNA, one strand shown
Matrix: in vitro
Tested at: not given
Setting: 8-mer, flanks averaged, mean of 2 arrays, mostly near background
Relative to: not given
Direction: higher = stronger binding
Construct (chain): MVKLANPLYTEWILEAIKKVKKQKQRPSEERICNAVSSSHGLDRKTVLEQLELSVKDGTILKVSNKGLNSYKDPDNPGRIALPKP
| Strand | E-score |
| --- | --- |
| GAATGCAA | -0.146 |
| AATGAAAA | -0.0989 |
| ATGTTTAC | -0.06 |
| ATTCGCTG | -0.0436 |

Other studies, line by line
| Substance | target | test | system | conditions | scale | measurement | value |
| --- | --- | --- | --- | --- | --- | --- | --- |
| PhoQ, residues 284 288 289 292 302 303 AMDMFI | PhoP, residues 12 14 15 18 19 QWHVF (Escherichia coli, UniProt P23836) | Sort-seq, measured: YFP reporter | E. coli | PhoQ-PhoP variant library, together with: 10 µM Mg2+ | relative to: high Mg2+ state, higher = stronger signaling | fold induction | 1.87 |

Excerpt of the above (block 2):
| Variant | normalised enrichment score |
| --- | --- |
| A3T | 7.57 |
